# Experimental data from different studies.
# Numbered parts are unrelated; each lists some results of a single study.

# Sample 1
# Target: Histone acetyltransferase KAT6A, both winged helices, GST fusion (KAT6A, Homo sapiens, UniProt Q92794, residues 1-181)
# Method: protein binding microarray
# Form: double-stranded DNA, one strand shown
# Sample: in vitro
# Tested at: not given
# Setting: 8-mer, flanks averaged, mean of 2 arrays, mostly near background
# Baseline: not given
# Reading: higher = stronger binding
# Construct (chain): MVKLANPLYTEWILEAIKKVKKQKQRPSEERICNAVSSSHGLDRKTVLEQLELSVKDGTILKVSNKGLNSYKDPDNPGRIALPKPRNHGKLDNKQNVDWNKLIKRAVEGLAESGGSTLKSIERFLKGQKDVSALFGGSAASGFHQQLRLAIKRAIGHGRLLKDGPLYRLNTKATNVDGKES
Sequence,E-score
TACGAGCA,-0.0505
CTCATTTC,-0.0661
CTCCATAC,-0.0749
CGTGGCAG,-0.0779
TAGGGATA,-0.103
CTGCATGC,0.0566
ATCACTCG,0.0292
GTAAAAGA,-0.0736
CCCATGGC,-0.0499
TGTTTTAA,-0.0108
CAGACGGG,0.123
CGCAGAAG,0.128
CAGTTTGA,-0.0759
CAGGCAGG,-0.233
GAACAGAC,0.00737
AAAACCGC,0.188
ATAGCAGC,-0.0565
AGAACCAA,-0.186
AGACCTAT,-0.0503
ACAGCTAC,-0.282
GGTCCCAA,-0.0539
AACAGTAT,-0.152
CACTTTGA,-0.232
GAGATGAA,-0.0329
CCACTACC,-0.0621

# Sample 2
# Target: UBE2M UBC core domain (UniProt P61081)
# Chain of UniProt P61081 (whole entry, looked up): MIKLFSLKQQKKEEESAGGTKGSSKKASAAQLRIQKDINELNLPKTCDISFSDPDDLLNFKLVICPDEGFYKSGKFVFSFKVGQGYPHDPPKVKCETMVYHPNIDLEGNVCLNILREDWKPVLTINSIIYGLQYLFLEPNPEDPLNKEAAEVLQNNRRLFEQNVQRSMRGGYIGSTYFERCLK
# Method: yeast two-hybrid
# Sample: yeast
# Setting: mostly zero background
# Baseline: not given
# Reading: higher = stronger interaction
# B1: DZIP3 RING domain (UniProt Q86Y13); chain PDEEEEEEEPCVICHENLSPENLSVLPCAHKFHAQCIRPWLMQQGTCPTCRLHVLLPEEFP
# B2: SYTL4 RING domain (UniProt Q96C24); chain RGSQHYSDRTCARCQESLGRLSPKTNTCRGCNHLVCRDCRIQESNGTWRCKVCAKEIELKKAT
Sequence,lacZ reporter activity
B1 (DZIP3 RING domain),0
B2 (SYTL4 RING domain),0
AMYLQENGIDCPKCKFSYALARGGCMHFHCTQCRHQFCSGCYNAFYAKNKC (RNF31 RING domain (UniProt Q96EP0)),0

# Sample 3
# Target: Ras GTPase-activating protein-binding protein 1, C-terminal RGG region (G3BP1, Homo sapiens, UniProt Q13283)
# Chain of UniProt Q13283 (whole entry, looked up): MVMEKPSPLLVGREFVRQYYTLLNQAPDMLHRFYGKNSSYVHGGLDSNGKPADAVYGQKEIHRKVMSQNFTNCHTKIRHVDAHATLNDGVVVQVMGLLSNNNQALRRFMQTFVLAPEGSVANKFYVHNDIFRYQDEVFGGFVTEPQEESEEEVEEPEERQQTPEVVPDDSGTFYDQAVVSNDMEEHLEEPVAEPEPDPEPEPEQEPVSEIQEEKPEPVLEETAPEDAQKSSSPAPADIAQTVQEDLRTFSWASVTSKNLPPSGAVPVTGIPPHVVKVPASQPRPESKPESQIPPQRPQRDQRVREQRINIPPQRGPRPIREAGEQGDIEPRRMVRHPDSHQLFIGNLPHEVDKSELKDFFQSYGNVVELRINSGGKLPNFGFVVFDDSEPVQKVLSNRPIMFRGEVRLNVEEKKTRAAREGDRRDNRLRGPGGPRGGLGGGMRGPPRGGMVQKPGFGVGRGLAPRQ
# Method: RNA Bind-n-Seq
# Form: RNA
# Sample: in vitro
# Tested at: 1 µM
# Setting: whole 134-nt RNA, ends assumed
# With: 150 mM KCl
# Baseline: input library
# Reading: higher = stronger binding
# Shared flanks, not repeated: GGGAGUUCUACAGUCCGACGAUC … UGGAAUUCUCGGGUGUCAAGG
Sequence,log2 enrichment
CCUGUGCUACACAUCGUAUGUACCGAAUCGGUUUUUUUGGGGUUUUUUUGGGUUUUUUUGGAAAGUAUUAUGUUACGCCGUUCGGAUCUG,-1.11
UGGCCCUGGUGGCAUGCGGGGAGGAAGAGGUGGCCUCAUGGACCGUGGUGGUCCCGGUGGAAUGUUCAGAGGUGGCCGUGGUGGAGACAG,2.15
CACAGACAACACGCACCCACACAGACACAGAGGGAAGGGGUUGGGAUGGGGACAGGGUGCACAGCAGGGCGGCGUAGGACCCCAGCCCCU,-0.718
UCAAGUCCUGUGCUACACAUCGUAUGUACCGAAUCGGGGCCGGGCCGGCCGGGGAAAGUAUUAUGUUACGCCGUUCGGAUCUGCACUUCC,-1.07
UGGGAGGUGGAAUUUGUUUAUUUUUUUAGCUCAUUUCCAGGGGUGGGAAUUUUUUUUUAAUAUGUGUCAUGAAUAAAGUUGUUUUUGAAA,2.8
ACCAUGGAGGUGGGCAUCUUUGGGAAGUGGGGCAAGGGGGGGAUAGGGAGGGGGGUAACACUUUGGGAACAGGUGGUCCCAGGUCGUUUC,-1
AGUCCUGUGCUACACAUCGUAUGUACCGAAUCGGGGCCCCGGGCCCCGGGGCCCCGGGAAAGUAUUAUGUUACGCCGUUCGGAUCUGCAC,-0.233
UACCCUCGUGCCCCUGUUUUUCCUGGCCGUGGUAGUUACUCAAACAGAGGGAACUACAACAGAGGUGGAAUGCCCAACAGAGGGAACUAC,-1.46
CUCAAGUCCUGUGCUACACAUCGUAUGUACCGAAUCGGGUUGGGUUGGGUUGGGAAAGUAUUAUGUUACGCCGUUCGGAUCUGCACUUCC,2.29

# Sample 4
# Target: Sal-like protein 4, full length isoform A (SALL4, Homo sapiens, UniProt Q9UJQ4, residues 1-1053)
# Chain of UniProt Q9UJQ4 (whole entry, looked up): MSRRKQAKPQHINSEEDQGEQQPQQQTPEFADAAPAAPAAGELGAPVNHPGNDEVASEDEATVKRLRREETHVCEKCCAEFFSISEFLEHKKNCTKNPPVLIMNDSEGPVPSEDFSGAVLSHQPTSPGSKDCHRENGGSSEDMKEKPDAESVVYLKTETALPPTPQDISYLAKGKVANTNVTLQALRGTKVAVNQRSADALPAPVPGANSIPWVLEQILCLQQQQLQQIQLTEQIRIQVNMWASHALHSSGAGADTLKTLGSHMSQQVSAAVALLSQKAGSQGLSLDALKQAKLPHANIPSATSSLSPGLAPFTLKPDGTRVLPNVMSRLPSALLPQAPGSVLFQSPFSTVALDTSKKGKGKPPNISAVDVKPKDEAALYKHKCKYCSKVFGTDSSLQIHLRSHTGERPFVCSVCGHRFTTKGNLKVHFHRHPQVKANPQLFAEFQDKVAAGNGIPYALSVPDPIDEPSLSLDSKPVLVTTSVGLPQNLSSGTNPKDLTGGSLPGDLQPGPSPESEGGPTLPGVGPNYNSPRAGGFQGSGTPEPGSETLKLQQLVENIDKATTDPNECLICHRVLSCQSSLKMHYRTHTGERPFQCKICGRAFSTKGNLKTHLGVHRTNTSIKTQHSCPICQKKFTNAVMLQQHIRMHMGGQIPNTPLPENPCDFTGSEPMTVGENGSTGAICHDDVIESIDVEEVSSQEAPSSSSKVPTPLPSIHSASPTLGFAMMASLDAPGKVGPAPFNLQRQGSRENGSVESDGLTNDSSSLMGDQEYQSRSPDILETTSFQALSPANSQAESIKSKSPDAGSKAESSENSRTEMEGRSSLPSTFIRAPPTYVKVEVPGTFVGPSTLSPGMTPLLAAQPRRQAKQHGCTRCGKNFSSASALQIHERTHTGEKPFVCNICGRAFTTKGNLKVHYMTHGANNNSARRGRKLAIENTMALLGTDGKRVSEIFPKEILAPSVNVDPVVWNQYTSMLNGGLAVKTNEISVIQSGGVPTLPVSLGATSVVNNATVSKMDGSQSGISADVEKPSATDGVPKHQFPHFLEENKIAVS
# Method: universal PBM
# Form: double-stranded DNA, one strand shown
# Sample: in vitro
# Tested at: 600 nM
# Setting: 8-mer, flanks averaged, mean of replicates
# Reading: higher = stronger binding
Sequence,E-score
ACAGAAGA,0.0564
TCCTAAGA,-0.0146
CAATAAAA,0.344
AAACTCCG,-0.0849
ACTCAGGC,-0.0639
GACTTAAA,0.111
CCCGATAA,0.00226
GCGGGATA,-0.135
CTGAGCCC,-0.236
CACGATAC,0.0493
AACCATAG,0.0369
AAACCCGG,-0.272
ACTAAAAC,0.0877

# Sample 5
# Target: RNA binding protein fox-1 homolog 2, RRM domain, GST-SBP tag (RBFOX2, Homo sapiens, UniProt O43251-10, residues 100-194)
# Method: RNA Bind-n-Seq
# Form: RNA
# Sample: in vitro
# Tested at: 365 nM
# Setting: natural RNA segment, single round, ends assumed
# Baseline: no-protein control
# Reading: higher = stronger binding
# Shared flanks, not repeated: GGGAGUUCUACAGUCCGACGAUC … UGGAAUUCUCGGGUGCCAA
# Target sequence (chain): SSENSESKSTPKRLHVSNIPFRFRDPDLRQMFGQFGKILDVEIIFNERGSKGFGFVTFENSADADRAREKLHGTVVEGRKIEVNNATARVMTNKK
Sequence,RBNS enrichment (R)
UUCAAGCGGAAAACAUCUGAGAAUGGCUUUCCCAUAUUGCAUUACGGCAUGCAGAAGGCUUUAUUUUAAAGUCAUUCCAUCAGAGGUGUUCUCAGAAUUAGACCCCACCU,1.05
CCUACGUGAACCACCUGGGUCUCCCUUAGCAGGUACCCAGCCCUGAGGUGACUGACCACCUAGGGCCCCUGAGAGGCAAAGGGAACCUGCAAAGGGCCUGUCCCCGGGCA,0.444
GGUUUCUCAAAGGCAAUCCAGCUUUCACAAAGGAAGCCCAUGGGAAGGCAGGUGGGAGGGAAAGGAAGGGGCACAGCCCUAUUUCUUCCUACCUGCUAGGACAAGGUGGA,0.348
AGUCAGGCAGCUCACACUGGACCAGUGUGGACCUUCCUUCCUCCCAUGGCAUGUGCAAGUAGGUCUGCGUGACCCCACUUCUGUGGUGCCGGCCUUACCUCGUCUUCAUC,0.6
UCCCUCCCUCUCUUGCCAGCACAUCCCUUAGUCCCCUUGAGACAAGUGGACCUAAGUGGCCGAGAGAGGAGGGUCUGGCCUCCUUGGCCCCCCAUCUUGCUUUCCCAGGG,0.344
ACCUGGACUCCAGAAUUCACCCUCUCCCCUGCAGUCUGGGUUCCCAGACUGAGUCCUCUCCCCAAAUCAGGGCUCUAGACCCGAGCCCUCCAAACCUGGACUCUGGGACU,0.344
GGCUCUACCCCAAACUCUGAGGACUACCUUACAGCUGACUUAAGUGUCUCACUAAAGCAUGAAAUGUGAAUUUUUAUUGUUGGAAAUAUAAUUUAAGGUAUUUAUGUUCU,12
GUCCCCGUACCACCAUGCACUGUAAAUAUCCCUCCCCUCUCUCCCUGGUCCCCUCCCCCAUCCCCACCACUGAUAUCAUGGGGAGUAAUAGGACCAGAGCGGUAUCUCUG,0.805

# Sample 6
# Target: RING finger protein unkempt homolog, zinc fingers 1-6, GST-SBP tag (UNK, Homo sapiens, UniProt Q9C0B0, residues 30-357)
# Method: RNA Bind-n-Seq
# Form: RNA
# Sample: in vitro
# Tested at: not given
# Setting: RNA with constant flanks, human-mouse chimeric sites, ends assumed
# Baseline: input RNA pool
# Reading: higher = stronger binding
# Construct (chain): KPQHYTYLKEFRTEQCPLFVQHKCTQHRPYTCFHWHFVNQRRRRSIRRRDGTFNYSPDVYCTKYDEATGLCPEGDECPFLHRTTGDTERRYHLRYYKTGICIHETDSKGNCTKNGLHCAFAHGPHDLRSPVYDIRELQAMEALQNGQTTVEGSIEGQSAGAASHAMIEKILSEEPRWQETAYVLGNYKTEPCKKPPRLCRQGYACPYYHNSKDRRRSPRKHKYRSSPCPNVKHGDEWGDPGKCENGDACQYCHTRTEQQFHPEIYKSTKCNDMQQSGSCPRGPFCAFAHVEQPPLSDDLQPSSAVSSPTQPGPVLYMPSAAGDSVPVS
Sequence,bound/input enrichment [ratio]
GGGAGUUCUACAGUCCGACGAUCUCUGGUCAUACUCGUGCGUAUGGUGUUUGCUUUGUGGACACUUCACUGGGAAAGUUUUUCAUCGGCCAGUUUUCGGAUGACCGCCACUGUUCCAGAUUUAGGACGCUAGUGGCUCACUAUCAACAGAGGAUUGAGCAUCA,0.248
GGGAGUUCUACAGUCCGACGAUCGAAACUAUUCCUAAAGAGGAGAGAGCUGAAAAGGAAGCUCGGAGAUCGUCUCUCGAGAAACAUAGAAAAGAAAAGCCUUUUAAAACCGGGAGAGGCAGAAUUUCCACUCCUGAAAGAAAACAACAGAGGAUUGAGCAUCA,0.685
GGGAGUUCUACAGUCCGACGAUCACCAUUUUCGCGGUUCAGGCUUUGUGUGUAGUUCACUUACGGUAUUAAAUUAUUAUUCUGCUUAGCUUAUAAUAAGGAUAAUUGCAUGAUUUAAGUAGAUCACUGAAUACUCUGAAACUUCAACAGAGGAUUGAGCAUCA,0.616
GGGAGUUCUACAGUCCGACGAUCGUGCCCUUCUCGCUGCUGCGGAGCCCGAGCUGGGAACCAUUCCGGGACUGGUACCCUGCACACAGCCGCCUCUUCGAUCAAGCUUUCGGGGUGCCCCGGCUGCCGGAGGAGUGGUCGCAGCAACAGAGGAUUGAGCAUCA,0.0522

# Some of these lines once more (sample 3):
Sequence,log2 enrichment
UGGCCCUGGUGGCAUGCGGGGAGGAAGAGGUGGCCUCAUGGACCGUGGUGGUCCCGGUGGAAUGUUCAGAGGUGGCCGUGGUGGAGACAG,2.15
CACAGACAACACGCACCCACACAGACACAGAGGGAAGGGGUUGGGAUGGGGACAGGGUGCACAGCAGGGCGGCGUAGGACCCCAGCCCCU,-0.718
UCAAGUCCUGUGCUACACAUCGUAUGUACCGAAUCGGGGCCGGGCCGGCCGGGGAAAGUAUUAUGUUACGCCGUUCGGAUCUGCACUUCC,-1.07
UGGGAGGUGGAAUUUGUUUAUUUUUUUAGCUCAUUUCCAGGGGUGGGAAUUUUUUUUUAAUAUGUGUCAUGAAUAAAGUUGUUUUUGAAA,2.8
ACCAUGGAGGUGGGCAUCUUUGGGAAGUGGGGCAAGGGGGGGAUAGGGAGGGGGGUAACACUUUGGGAACAGGUGGUCCCAGGUCGUUUC,-1
AGUCCUGUGCUACACAUCGUAUGUACCGAAUCGGGGCCCCGGGCCCCGGGGCCCCGGGAAAGUAUUAUGUUACGCCGUUCGGAUCUGCAC,-0.233
UACCCUCGUGCCCCUGUUUUUCCUGGCCGUGGUAGUUACUCAAACAGAGGGAACUACAACAGAGGUGGAAUGCCCAACAGAGGGAACUAC,-1.46
CUCAAGUCCUGUGCUACACAUCGUAUGUACCGAAUCGGGUUGGGUUGGGUUGGGAAAGUAUUAUGUUACGCCGUUCGGAUCUGCACUUCC,2.29
